Measurements of several laboratories.
Parts stem from different laboratories: compare values within a part only.

Study 1
Target: Sal-like protein 4, full length isoform A (SALL4, Homo sapiens, UniProt Q9UJQ4, residues 1-1053)
UniProt Q9UJQ4, sequence (whole entry, looked up): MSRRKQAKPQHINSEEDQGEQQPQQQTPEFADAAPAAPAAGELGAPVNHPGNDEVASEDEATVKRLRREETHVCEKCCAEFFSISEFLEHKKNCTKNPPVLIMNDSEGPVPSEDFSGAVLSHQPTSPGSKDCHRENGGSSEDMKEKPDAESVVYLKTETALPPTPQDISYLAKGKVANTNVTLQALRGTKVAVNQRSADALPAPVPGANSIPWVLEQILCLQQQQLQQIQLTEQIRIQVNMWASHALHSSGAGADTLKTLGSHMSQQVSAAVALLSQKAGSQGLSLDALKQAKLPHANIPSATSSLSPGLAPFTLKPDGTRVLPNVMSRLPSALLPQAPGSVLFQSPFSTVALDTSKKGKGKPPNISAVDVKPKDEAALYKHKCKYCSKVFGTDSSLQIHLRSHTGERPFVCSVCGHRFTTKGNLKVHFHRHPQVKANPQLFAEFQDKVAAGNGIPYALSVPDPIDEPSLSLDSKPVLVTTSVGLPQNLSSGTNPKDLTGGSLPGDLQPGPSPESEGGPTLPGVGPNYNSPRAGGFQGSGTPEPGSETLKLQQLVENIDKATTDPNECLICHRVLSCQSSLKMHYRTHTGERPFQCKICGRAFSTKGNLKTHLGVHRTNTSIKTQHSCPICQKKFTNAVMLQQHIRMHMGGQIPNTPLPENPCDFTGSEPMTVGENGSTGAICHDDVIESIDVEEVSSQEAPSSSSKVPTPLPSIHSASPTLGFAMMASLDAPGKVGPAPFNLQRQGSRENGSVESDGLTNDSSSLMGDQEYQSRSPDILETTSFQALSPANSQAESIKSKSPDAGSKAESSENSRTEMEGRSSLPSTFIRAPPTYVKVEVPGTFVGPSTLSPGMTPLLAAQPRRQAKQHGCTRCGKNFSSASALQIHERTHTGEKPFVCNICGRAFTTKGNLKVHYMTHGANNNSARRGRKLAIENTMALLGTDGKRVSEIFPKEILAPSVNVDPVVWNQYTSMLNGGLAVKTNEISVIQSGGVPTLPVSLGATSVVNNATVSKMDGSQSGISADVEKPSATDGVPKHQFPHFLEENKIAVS
Technique: universal PBM
Molecule type: double-stranded DNA, one strand shown
Sample: in vitro
Tested at: 600 nM
Notes: 8-mer, flanks averaged, mean of replicates
Direction: higher = stronger binding
| Oligonucleotide | E-score |
| --- | --- |
| GCGGCGGA | -0.348 |
| ACTACGCT | 0.0238 |
| TACGGAGA | -0.00778 |
| ACGAATAC | 0.155 |
| CCGTGCCA | -0.23 |
| ATAACTTC | 0.292 |
| ACGAAAGT | 0.172 |
| GTCCTGCA | -0.107 |
| CGTTTTGC | 0.0234 |
| ATCCCACG | -0.141 |
| CACACGCC | -0.0864 |
| GTGGGATA | 0.0884 |
| TCGCCAAA | -0.00925 |
| AACCTTAC | 0.152 |
| GGGACGAA | -0.125 |
| CCACGTAA | -0.0382 |

Study 2
Molecule: SAPSAPIRLPHTAALS
Molecule type: peptide
Direction: direction not given
| tested on | test | system | setting | enrichment score |
| --- | --- | --- | --- | --- |
| human cyclin D3-Cln2 fusion | yeast growth, competitive growth deep sequencing | Saccharomyces cerevisiae | peptide tiling library | 1.2 |
| human cyclin B2-Cln2 fusion | yeast growth, competitive growth deep sequencing | Saccharomyces cerevisiae | peptide tiling library | 0.563 |
| human cyclin B3-Cln2 fusion | yeast growth, competitive growth deep sequencing | Saccharomyces cerevisiae | peptide tiling library | 0.81 |
| Saccharomyces cerevisiae | yeast growth, competitive growth deep sequencing | unfused Cln2 | peptide tiling library | 0.705 |
| human cyclin A2-Cln2 fusion | yeast growth, competitive growth deep sequencing | Saccharomyces cerevisiae | peptide tiling library | 0.104 |
| human cyclin A1 | cyclin docking binding, pooled competitive growth screen | yeast cyclin A1-Cln2 system |  | -0.166 |
| Saccharomyces cerevisiae | mating arrest growth, competitive growth deep sequencing | no Cln2 overexpression | peptide tiling library | -0.192 |

Study 3
Target: Interferon regulatory factor 7, full length, phosphomimetic (IRF7, Homo sapiens, UniProt Q92985, residues 1-503, S471D/S472D/S475D/S476D/S477D/S483D/S484D/S487D)
UniProt Q92985, sequence (whole entry, unmodified, looked up): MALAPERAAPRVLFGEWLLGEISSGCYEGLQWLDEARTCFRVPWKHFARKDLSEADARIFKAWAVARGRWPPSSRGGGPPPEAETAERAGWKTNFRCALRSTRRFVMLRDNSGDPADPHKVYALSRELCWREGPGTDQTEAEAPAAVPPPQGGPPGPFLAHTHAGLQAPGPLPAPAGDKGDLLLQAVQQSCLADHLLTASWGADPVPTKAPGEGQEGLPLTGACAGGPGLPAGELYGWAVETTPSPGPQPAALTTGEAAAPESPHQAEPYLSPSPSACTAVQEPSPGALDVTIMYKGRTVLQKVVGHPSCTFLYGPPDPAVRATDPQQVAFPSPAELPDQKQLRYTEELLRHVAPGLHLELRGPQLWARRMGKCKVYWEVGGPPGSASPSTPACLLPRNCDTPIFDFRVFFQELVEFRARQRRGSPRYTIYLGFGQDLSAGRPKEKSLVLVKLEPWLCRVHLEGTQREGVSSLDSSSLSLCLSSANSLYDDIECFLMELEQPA
Technique: protein-binding microarray
Molecule type: double-stranded DNA, one strand shown
Sample: in vitro
Tested at: 2200 nM top
Notes: 60-bp whole probe
Added: salmon DNA 0.4 mg/ml
Reference: random background probes
Direction: higher = stronger binding
Constant ends, left off below: GCCTAGCAC … GTCTTGATTCGCTTGACGCTGCTG
| Oligonucleotide | fitted relative affinity |
| --- | --- |
| GACGGTATCGACTTGCGGGACGTGCTA | 0.397 z-score |
| CTCTGGGGAGATCAGCGCATGTGCTAG | -0.916 z-score |
| GACGATCTCAGTTCCGAGACGTGCTAG | 0.598 z-score |
| TTAGAACTGGGGACTGGAGTAGTGCTA | -0.527 z-score |
| GACGGTTTCGACGCTGGGGACGTGCTA | 1.7 z-score |
| TTAGTTATCGACTTTCGGTTAGTGCTA | 6.69 z-score |
| AGGAGAGATTAAGTAACTTAGTGCTAG | -1.62 z-score |
| TCACTGCTACCCTTTGAAACTGTGCTA | 0.757 z-score |
| GACGGACTGCTTTTTCTGACGTGCTAG | 0.581 z-score |
| TCATATTCAGGTATATAACTGTGCTAG | 1.19 z-score |
| TCAAGTGTCAATAATGACACTGTGCTA | -0.465 z-score |
| ATAGGTTTCCTTTCCCTTTAGTGCTAG | 5.4 z-score |
| TCATTCTTTTTTTTCTTACTGTGCTAG | 2.27 z-score |
| TTAGATTTCATTCTCGATTAGTGCTAG | 1.17 z-score |
| TGAGGTTTCGACACTGGGTTAGTGCTA | 1.85 z-score |
| GACGGTTTCCTTGCCCTGACGTGCTAG | 1.9 z-score |
| TTAGAAGTGGGGACTGGATTAGTGCTA | -0.532 z-score |
| GACGGAGTGGGGACTGGGGACGTGCTA | -0.64 z-score |
| TCAACTTTCCCCTTCCTACTGTGCTAG | 4.72 z-score |
| TTAGATCTCAGTTTAGATTAGTGCTAG | 0.292 z-score |
| GACGGTATCCTTCTCCTGAGGTGCTAG | 0.559 z-score |
| GACGATCTGGGGTATCGAGACGTGCTA | 0.0749 z-score |
| GACGTACTGCTTCTCCTGACGTGCTAG | 1.43 z-score |
| GACGGTATCGGCCTGGGGACGTGCTAG | -0.555 z-score |
| CTTCTTTTTTTTCTTTAAAAGTGCTAG | 2.41 z-score |

Study 4
Target: Ras GTPase-activating protein-binding protein 1, full length (G3BP1, Homo sapiens, UniProt Q13283)
UniProt Q13283, sequence (whole entry, looked up): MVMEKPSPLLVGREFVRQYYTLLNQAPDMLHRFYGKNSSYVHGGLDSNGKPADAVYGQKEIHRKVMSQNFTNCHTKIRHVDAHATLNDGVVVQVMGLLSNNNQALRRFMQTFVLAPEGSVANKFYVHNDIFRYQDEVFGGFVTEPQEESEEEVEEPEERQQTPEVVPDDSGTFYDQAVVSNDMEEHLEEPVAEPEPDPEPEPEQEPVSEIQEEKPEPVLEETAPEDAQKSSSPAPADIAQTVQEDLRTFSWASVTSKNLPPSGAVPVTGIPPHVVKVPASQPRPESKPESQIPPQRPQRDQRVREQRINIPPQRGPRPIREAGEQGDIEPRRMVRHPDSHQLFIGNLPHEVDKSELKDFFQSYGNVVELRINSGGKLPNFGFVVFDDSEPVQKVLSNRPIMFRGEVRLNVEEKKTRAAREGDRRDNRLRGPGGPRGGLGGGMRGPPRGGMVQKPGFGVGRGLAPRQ
Technique: RNA Bind-n-Seq
Molecule type: RNA
Sample: in vitro
Tested at: 200 nM
Notes: whole 134-nt RNA, ends assumed
Added: 150 mM KCl
Reference: input library
Direction: higher = stronger binding
| Oligonucleotide | log2 enrichment |
| --- | --- |
| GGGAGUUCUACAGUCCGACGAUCAGUCCUGUGCUACACAUCGUAUGUACCGAAUCGGUUUGGUUUUUUUGGUUUUUUUGGAAAGUAUUAUGUUACGCCGUUCGGAUCUGCACUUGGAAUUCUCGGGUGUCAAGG | -1.31 |
| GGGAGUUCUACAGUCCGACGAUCUCAAGUCCUGUGCUACACAUCGUAUGUACCGAAUCGGGGAAAGGAAAGGAAAGGAAAGUAUUAUGUUACGCCGUUCGGAUCUGCACUUCCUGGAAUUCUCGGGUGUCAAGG | -0.861 |
| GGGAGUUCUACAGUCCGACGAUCUAACUUUAGAGGAGGAUCUGAUGGAUAUGGCAGUGGACGUGGAUUUGGGGAUGGCUAUAAUGGGUAUGGAAGAGGACCUGGAGGUGGCAAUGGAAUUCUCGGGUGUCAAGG | 0.183 |
| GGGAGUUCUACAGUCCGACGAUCUCCUCAAGUCCUGUGCUACACAUCGUAUGUACCGAAUCGGGUGGUGGGGUGGAAAGUAUUAUGUUACGCCGUUCGGAUCUGCACUUCCAGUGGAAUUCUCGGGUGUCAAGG | 0.497 |
| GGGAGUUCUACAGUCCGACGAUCCCUCAAGUCCUGUGCUACACAUCGUAUGUACCGAAUCGGAAGGGAAGGAAGGGAAAGUAUUAUGUUACGCCGUUCGGAUCUGCACUUCCAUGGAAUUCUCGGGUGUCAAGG | -0.658 |
| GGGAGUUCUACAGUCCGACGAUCCACAGACAACACAAACCCACACAGACACAGAGGGAAGGGGUUGGGAUGGGGACAGGGUGCACAGCAGGGCGGGGUAGGACCCCAGCCCCUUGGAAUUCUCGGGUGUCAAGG | 1.92 |
| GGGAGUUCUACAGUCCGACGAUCUGGCCCUGGUGGCAUGCGGGGAGGAAGAGGUGGCCUCAUGAAUCGUGGUGGUCCCGGUGGAAUGUUCAGAGGUGGCCGUGGUGGAGACAGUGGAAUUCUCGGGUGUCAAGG | 0.0316 |
| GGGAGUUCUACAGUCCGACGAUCCCUGUGCUACACAUCGUAUGUACCGAAUCGGGGUUUGGGGUUUUUUUGGGGUUUUUGGGGAAAGUAUUAUGUUACGCCGUUCGGAUCUGCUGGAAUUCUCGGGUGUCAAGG | 0.318 |
| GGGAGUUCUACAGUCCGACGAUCUGGGAGGUGGAUUUUGUUUAUUUUUUUAGCUCAUUUCCAGGGGUGGUAAUUUUUUUUUAAUAUGUGUCAUGAAUAAAGUUGUUUUUGAAAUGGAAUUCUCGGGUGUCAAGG | 0.079 |
| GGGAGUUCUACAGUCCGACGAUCGCAGGAAGUAAAAACAAAUGGAAAUGCUUCGGAUAGUGGCAGGGGUGGGGGUUGGUAAGGAAAGGGUGGGAUGGGAGUGGGUAAAGAGUUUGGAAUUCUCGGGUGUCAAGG | 0.982 |
| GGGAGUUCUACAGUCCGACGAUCUCGCCCUGGUGGCAUGCGGGGAGGAAGAGGUGGCCUCAUGGAUCGUGGUGGUCCCGGUGGAAUGUUCAGAGGUGGCCGUGGUGGAGACAGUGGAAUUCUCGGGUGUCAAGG | 0.203 |
| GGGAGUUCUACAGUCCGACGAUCGUCCUGUGCUACACAUCGUAUGUACCGAAUCGGCCCCCCGGCCCCCCGGGCCCCCCGGAAAGUAUUAUGUUACGCCGUUCGGAUCUGCACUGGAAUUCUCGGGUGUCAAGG | 0.0208 |
| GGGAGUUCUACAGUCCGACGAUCCUCAAGUCCUGUGCUACACAUCGUAUGUACCGAAUCGGCCGGCCGGGGCCGGGAAAGUAUUAUGUUACGCCGUUCGGAUCUGCACUUCCAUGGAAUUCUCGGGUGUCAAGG | -0.195 |
| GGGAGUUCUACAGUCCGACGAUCACCAUGCAGGUGGGCAUCUUUAGGAAGUGGGGCAAGGGGGGGAUAGGGAGGGGGGUAACACUUUGGGAACAGGUGGUCCCAGGUCGUUUCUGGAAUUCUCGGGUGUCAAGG | 1.21 |

Study 5
Target: RNA binding protein fox-1 homolog 2, RRM domain, GST-SBP tag (RBFOX2, Homo sapiens, UniProt O43251-10, residues 100-194)
Technique: RNA Bind-n-Seq
Molecule type: RNA
Sample: in vitro
Tested at: 365 nM
Notes: natural RNA segment, single round, ends assumed
Reference: no-protein control
Direction: higher = stronger binding
Target sequence (chain): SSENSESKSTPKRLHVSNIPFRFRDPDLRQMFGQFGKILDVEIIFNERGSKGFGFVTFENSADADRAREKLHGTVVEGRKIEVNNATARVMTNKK
| Oligonucleotide | RBNS enrichment (R) |
| --- | --- |
| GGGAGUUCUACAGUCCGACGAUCCUGGAAGAUGCACUUGCCCCGACAGCUGGGCAGCACGGCUGUCCUCUGCAGAGACUGCCUGGUCCUCAUUGUACUUUGGUGGCUCAACUGAAUAAAGCCUUGUGGGAAGCUGGAAUUCUCGGGUGCCAA | 0.979 |
| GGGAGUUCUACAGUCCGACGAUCUGGAACUAUACAGAUAGGUAAAGAGUUCCAAGUUCGUCCAGCCCAUGUGCAAAGUCAACAGUAUUUGCCUUAAGAUUUCAUAUAUAUAUAUUUUUUUGCAUUGACUGCUGUGGAAUUCUCGGGUGCCAA | 0.693 |
| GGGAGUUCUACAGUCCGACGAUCCCAGAGUCCAGACUGACAUUACAGCGCAAGAGUUUGCAAGUGUGUCCAGCAUGCACCAACUGUGCAGAACUUGGCUCGGUAACUUUGCGUGGAAAAAUAAAGUACAUUUUUGGAAUUCUCGGGUGCCAA | 0.614 |
| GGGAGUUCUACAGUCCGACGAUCAGUUGACUGUAAGUGCUUCCCUGUCAUCCAUGUGCAAUUUCCCGACAUUCCACCUCCAUCUCUGCUUGUGUCCCUCACAUCAGCAUUAAUCUUUGUUUCCCUCACACUUAUGGAAUUCUCGGGUGCCAA | 1.09 |
| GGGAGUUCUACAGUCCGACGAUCUACCAGGAGAGUUGAGAGAUAGUAACUAUAGUUUUUCUUAGGUCUUUGUUUACUAAGGGUCUGCUUAGGAAGAAUUCAGGGAGGAACUGUGCUGUGGUGUGACCAAUGAAUGGAAUUCUCGGGUGCCAA | 0.803 |
| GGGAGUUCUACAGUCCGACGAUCCCUGGGUCACAAUGAUCAGUUGGUUUUUCCAUUAGGGAGGGAAGGUCUGGGCCUGCUUAGCAAGAACCGCUUUAUUCCGGUUCCCAUACCACAUUCAGCCGGCCAGGAGAUGGAAUUCUCGGGUGCCAA | 0.294 |
| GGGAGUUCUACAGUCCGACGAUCAUCUUAACCGAUUUCUUGAACAGUGUUUAAGUACAGUGUGAUUUGUGCCCCGAGACAGUCAGAACAGAGUGUGUGUGCUCGUCCGACUGACAGACAGACAGGCAGGCAGGUGGAAUUCUCGGGUGCCAA | 0.344 |
| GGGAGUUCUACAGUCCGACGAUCUAAGGUGGGUACUCUGAGCAGCCUGCCCUGCCUCUCGUGCUUUGAAAUUCUUUUGGUAGAAAUCCCUGAAGAGGUGCACCCAUCACUCAGUGCCCAGGGUCCUUUUCUGGUGGAAUUCUCGGGUGCCAA | 0.586 |
| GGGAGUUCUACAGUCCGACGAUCUUUUUAUAUAUACUUUUACCACUGUCACUGAAACAUCUGCCGAGAGCCAGCUAGGGCAGGAGUUGGGGAAAGACGCGCAGAAAGGCAAGCCCGAGUCAGGGCACUUGUUAUGGAAUUCUCGGGUGCCAA | 0.776 |
| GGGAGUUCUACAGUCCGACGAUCCCAGAGCAACUUCCAGCAAGGCUGGUCUGGGUCUCUGCCCACCAGGCGGGGAGGUGUUCAAAGACAUCUCCCUCAGUGCGGAUUUAUAUAUAUAUUUUUCCUUCACUGUGUGGAAUUCUCGGGUGCCAA | 0.26 |
| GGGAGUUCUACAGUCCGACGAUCAAAAAAGAUGAUUAAGAAGGAUGCUCCUACAACUGUAUCCUGACAGUUAAGUCACAGCUUAAUGUGUAGAUAUGAGCUGUUUACAGUGGUGACUAUAUAUAAUUGGGGAGUGGAAUUCUCGGGUGCCAA | 0.57 |
| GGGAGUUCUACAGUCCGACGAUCAAAGGUGUAAAGUUUGCAAAUUUGAAGAAAUAUAUAUUAACACUGUGGUCAGGUACAUUCCUUAAAACUAAUUAAAUGUACAUUUCUAUAAUAAAUAUUUUUUAAACUAAUGGAAUUCUCGGGUGCCAA | 0.63 |

A few entries again (study 3):
| Oligonucleotide | fitted relative affinity |
| --- | --- |
| ATAGGTTTCCTTTCCCTTTAGTGCTAG | 5.4 z-score |
| TCAAGTGTCAATAATGACACTGTGCTA | -0.465 z-score |
| GACGGAGTGGGGACTGGGGACGTGCTA | -0.64 z-score |
| GACGTACTGCTTCTCCTGACGTGCTAG | 1.43 z-score |
| GACGGACTGCTTTTTCTGACGTGCTAG | 0.581 z-score |
| TGAGGTTTCGACACTGGGTTAGTGCTA | 1.85 z-score |
